Measured values collected from several papers.
Every numbered part comes from another study and shows a few of its results, in no order. Values joined by “and” are separate records of one study, mostly repeats; a detail may differ.
Sequence of UniProt Q9NQU5 (whole entry, looked up): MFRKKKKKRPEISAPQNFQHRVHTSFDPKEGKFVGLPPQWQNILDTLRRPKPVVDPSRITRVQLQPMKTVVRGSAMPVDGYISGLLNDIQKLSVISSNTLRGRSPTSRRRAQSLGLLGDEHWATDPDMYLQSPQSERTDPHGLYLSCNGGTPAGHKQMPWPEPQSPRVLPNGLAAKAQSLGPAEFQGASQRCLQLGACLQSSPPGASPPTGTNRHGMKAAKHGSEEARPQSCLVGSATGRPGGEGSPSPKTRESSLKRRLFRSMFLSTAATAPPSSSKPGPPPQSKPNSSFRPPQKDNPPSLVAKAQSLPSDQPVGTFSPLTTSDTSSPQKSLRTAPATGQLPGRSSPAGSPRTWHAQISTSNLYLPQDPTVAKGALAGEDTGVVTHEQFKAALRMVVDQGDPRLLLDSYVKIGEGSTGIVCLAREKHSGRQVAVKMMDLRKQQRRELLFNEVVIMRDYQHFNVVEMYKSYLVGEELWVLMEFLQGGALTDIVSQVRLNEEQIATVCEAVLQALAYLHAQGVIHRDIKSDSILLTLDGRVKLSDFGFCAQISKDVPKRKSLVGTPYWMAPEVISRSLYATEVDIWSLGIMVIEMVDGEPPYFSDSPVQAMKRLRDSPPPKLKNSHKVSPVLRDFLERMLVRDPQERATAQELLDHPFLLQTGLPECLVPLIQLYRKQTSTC
Sequence of UniProt Q9H0K1 (whole entry, looked up): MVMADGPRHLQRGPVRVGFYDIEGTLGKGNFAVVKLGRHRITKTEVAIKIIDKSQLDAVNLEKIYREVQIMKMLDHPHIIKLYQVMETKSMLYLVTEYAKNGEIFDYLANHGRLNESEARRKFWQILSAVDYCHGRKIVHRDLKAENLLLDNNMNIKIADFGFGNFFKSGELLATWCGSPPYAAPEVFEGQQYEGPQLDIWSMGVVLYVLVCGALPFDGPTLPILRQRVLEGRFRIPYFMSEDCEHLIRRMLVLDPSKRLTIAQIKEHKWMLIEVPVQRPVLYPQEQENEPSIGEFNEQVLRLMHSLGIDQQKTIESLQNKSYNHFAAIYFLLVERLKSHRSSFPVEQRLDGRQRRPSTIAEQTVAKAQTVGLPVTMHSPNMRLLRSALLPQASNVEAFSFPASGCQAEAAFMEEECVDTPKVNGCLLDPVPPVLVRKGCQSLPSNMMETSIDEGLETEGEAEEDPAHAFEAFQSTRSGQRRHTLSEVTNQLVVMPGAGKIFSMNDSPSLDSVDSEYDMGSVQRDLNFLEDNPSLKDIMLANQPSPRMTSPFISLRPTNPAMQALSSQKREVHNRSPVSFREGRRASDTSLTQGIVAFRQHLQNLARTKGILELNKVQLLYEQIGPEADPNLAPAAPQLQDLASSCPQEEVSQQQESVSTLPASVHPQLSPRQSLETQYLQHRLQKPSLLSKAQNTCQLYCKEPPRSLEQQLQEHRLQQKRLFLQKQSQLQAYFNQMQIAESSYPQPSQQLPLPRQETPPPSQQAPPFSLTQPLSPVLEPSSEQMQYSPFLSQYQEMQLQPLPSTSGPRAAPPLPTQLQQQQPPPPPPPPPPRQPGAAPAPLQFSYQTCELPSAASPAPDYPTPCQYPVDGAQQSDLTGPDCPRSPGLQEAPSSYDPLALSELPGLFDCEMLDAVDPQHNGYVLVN
Sequence of UniProt Q9UPE1 (whole entry, looked up): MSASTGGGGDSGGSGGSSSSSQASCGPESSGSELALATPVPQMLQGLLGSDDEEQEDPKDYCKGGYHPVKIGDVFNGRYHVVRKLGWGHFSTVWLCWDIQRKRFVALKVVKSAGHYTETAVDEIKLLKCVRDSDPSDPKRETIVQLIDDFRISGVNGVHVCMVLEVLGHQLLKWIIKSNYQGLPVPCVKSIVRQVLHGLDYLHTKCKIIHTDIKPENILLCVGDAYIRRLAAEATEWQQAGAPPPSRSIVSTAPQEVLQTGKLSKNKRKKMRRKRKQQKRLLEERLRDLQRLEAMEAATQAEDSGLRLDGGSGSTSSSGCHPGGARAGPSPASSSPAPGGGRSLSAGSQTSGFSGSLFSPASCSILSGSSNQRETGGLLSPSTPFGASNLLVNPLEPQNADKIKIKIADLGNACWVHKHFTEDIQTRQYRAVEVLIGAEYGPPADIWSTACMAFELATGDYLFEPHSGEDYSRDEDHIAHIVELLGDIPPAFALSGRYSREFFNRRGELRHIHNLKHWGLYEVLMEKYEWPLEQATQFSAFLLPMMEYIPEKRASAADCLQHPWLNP
Sequence of UniProt P10721 (whole entry, unmodified, looked up): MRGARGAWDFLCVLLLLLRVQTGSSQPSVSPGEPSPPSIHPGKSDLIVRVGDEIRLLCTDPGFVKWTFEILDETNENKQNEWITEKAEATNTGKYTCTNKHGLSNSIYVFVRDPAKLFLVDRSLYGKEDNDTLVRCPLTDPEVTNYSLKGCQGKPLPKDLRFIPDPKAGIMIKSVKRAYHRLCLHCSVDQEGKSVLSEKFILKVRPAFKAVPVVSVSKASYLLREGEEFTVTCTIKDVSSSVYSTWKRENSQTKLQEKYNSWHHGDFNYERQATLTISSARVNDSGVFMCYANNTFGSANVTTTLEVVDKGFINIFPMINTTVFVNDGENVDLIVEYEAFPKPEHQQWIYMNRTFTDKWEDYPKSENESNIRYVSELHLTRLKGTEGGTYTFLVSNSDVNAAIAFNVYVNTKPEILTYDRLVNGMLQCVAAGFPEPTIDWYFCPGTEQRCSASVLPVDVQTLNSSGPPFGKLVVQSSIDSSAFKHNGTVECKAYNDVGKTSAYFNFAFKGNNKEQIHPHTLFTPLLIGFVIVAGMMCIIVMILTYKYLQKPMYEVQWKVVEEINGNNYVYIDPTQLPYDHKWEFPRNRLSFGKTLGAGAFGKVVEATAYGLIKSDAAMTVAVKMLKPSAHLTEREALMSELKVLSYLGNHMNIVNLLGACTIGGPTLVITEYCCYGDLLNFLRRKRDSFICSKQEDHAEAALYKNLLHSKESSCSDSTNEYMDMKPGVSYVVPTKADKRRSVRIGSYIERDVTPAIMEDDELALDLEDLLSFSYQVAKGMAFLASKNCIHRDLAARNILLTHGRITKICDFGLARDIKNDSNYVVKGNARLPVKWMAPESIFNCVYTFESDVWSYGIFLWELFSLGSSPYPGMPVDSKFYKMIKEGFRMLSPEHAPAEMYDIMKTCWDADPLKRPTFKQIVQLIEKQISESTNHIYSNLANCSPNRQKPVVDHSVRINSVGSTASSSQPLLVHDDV
Sequence of UniProt Q13557 (whole entry, looked up): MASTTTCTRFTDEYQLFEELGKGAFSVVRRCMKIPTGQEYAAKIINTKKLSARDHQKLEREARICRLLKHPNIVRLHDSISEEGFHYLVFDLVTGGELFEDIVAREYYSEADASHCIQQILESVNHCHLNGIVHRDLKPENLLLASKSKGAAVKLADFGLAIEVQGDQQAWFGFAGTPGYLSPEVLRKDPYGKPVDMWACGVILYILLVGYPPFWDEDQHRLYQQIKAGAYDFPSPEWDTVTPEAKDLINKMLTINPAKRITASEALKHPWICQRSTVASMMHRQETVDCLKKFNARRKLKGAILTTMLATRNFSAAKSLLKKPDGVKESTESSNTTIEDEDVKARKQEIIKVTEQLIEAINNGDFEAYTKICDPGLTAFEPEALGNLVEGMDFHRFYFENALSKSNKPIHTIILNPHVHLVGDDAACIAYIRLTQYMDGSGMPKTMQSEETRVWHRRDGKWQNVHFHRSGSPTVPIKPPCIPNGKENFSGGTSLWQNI
Sequence of UniProt P06213 (whole entry, looked up): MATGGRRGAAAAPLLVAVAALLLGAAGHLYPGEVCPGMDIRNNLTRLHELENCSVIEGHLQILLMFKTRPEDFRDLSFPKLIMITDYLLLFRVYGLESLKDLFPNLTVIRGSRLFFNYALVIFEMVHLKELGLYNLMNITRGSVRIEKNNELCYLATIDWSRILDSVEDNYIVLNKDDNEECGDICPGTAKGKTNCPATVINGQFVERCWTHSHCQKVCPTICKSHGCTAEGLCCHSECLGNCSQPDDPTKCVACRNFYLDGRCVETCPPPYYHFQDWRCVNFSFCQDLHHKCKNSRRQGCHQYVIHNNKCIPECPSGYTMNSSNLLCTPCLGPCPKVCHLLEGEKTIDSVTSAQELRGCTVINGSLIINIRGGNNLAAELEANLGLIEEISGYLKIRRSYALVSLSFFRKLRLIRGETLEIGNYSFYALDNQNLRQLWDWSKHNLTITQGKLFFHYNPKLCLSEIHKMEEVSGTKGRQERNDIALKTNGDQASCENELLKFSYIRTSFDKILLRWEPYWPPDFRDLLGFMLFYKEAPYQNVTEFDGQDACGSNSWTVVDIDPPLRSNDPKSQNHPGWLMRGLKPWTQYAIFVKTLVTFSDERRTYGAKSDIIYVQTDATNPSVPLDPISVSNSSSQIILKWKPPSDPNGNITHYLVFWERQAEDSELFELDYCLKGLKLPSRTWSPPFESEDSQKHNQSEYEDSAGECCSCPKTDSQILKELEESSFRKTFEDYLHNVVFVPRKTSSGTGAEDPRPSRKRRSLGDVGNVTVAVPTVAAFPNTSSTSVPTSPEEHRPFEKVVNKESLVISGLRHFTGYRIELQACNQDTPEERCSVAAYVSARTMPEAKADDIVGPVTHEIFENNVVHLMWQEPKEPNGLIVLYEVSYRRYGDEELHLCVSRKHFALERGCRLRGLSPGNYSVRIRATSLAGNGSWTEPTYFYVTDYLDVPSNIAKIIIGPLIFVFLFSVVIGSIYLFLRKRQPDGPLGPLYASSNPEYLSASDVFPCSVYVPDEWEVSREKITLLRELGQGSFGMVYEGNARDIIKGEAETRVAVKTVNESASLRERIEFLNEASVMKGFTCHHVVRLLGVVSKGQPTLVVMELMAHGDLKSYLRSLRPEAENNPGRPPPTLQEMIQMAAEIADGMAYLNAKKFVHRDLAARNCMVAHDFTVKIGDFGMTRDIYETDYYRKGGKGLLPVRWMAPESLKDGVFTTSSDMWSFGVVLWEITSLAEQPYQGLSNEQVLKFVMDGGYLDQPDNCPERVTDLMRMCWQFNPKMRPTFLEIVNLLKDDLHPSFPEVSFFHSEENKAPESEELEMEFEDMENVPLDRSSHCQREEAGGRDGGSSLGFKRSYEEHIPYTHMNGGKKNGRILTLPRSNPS

Sample 1
Structure (SMILES): CC(C)n1cnc(-c2ccc(F)cc2)c1-c1ncc(C(=O)Nc2ccc(N3CCN(C)CC3)cc2)[nH]1
Technique: phase 2a clinical trial
Species: patients with idiopathic pulmonary fibrosis
test	setting	patients with treatment-emergent adverse events
refers to: electrocardiogram high voltage	30 mg once daily, Grade 4	0%
refers to: idiopathic pulmonary fibrosis	60 mg once daily, Grade 4	0%
refers to: carbon dioxide decreased	30 mg once daily, Grade 4	0%
refers to: C-reactive protein increased	30 mg once daily, Grade 5	0%
refers to: protein urine present	30 mg once daily, Grade 5	0%
refers to: first degree atrioventricular block	60 mg once daily, Grade 4	0%
refers to: hepatic function abnormal	30 mg once daily, Grade 4	0%
refers to: first degree atrioventricular block	dose not given, Grade 5, all drug arms	0%
refers to: left ventricular dysfunction	dose not given, Grade 4, all drug arms	0%
refers to: interstitial lung disease	60 mg once daily, Grade 2	0%
refers to: lumbar vertebral fracture	60 mg once daily, Grade 4, maximum intensity	0%
refers to: first degree atrioventricular block	dose not given, Grade 3, all drug arms	0%
refers to: lumbar vertebral fracture	30 mg once daily, Grade 4, maximum intensity	0%
refers to: C-reactive protein increased	60 mg once daily, Grade 3	0%
refers to: gastro-oesophageal reflux disease	60 mg once daily, Grade 2	0%

Sample 2
SMILES: CCCCc1c(-c2ccc(OC)cc2)[nH]c2nccnc12
Read-out: enzyme activity
Mode: inhibitor
Concentration: 0.5 µM
Relative to: control
target	remaining activity
PRKCQ (Homo sapiens, UniProt Q04759)	107%
PRKCZ (Homo sapiens, UniProt Q05513)	93.9%
TEC (Homo sapiens, UniProt P42680)	134%
SRPK1 (Homo sapiens, UniProt Q96SB4)	100%
CSNK1D (Homo sapiens, UniProt P48730)	94.7%
EPHA2 (Homo sapiens, UniProt P29317)	87.9%
CLK1 (Homo sapiens, UniProt P49759)	102%
CAMKK1 (Homo sapiens, UniProt Q8N5S9)	105%
CAMK1 (Homo sapiens, UniProt Q14012)	90.9%
SIK2 (Homo sapiens, UniProt Q9H0K1)	98.4%
MUSK (Homo sapiens, UniProt O15146)	95.4%
SGK2 (Homo sapiens, UniProt Q9HBY8)	116%
TYRO3 (Homo sapiens, UniProt Q06418)	98.6%
MAP3K20 (Homo sapiens, UniProt Q9NYL2)	83.6%
FLT1 (Homo sapiens, UniProt P17948)	103%
Cyclin-dependent kinase 2, with cyclin E (CDK2, Homo sapiens, UniProt P24941)	42.1%
IGF1R (Homo sapiens, UniProt P08069)	83.9%
CLK2 (Homo sapiens, UniProt P49760)	85.3%
RPS6KA3 (Homo sapiens, UniProt P51812)	88%
CSNK1E (Homo sapiens, UniProt P49674)	109%
PAK6 (Homo sapiens, UniProt Q9NQU5)	96.8%
JAK1 (Homo sapiens, UniProt P23458)	67.1%
PAK1 (Homo sapiens, UniProt Q13153)	83.7%

Sample 3
SMILES: CNCc1ccccc1-c1csc([C@@H](C)Nc2nc(C)nc3cc(OC)c(OC)cc23)c1
Read-out: cell-free assay
Technique: competition with immobilised ligand
Concentration: 1 µM
target	remaining binding
SRPK3 (Homo sapiens, UniProt Q9UPE1)	84%
KIT (Homo sapiens, UniProt P10721, D816V)	81%
PAK6 (Homo sapiens, UniProt Q9NQU5)	100%
NTRK2 (Homo sapiens, UniProt Q16620)	88%
CSNK1G3 (Homo sapiens, UniProt Q9Y6M4)	99%
MAP2K1 (Homo sapiens, UniProt Q02750)	86%
CDK11B (Homo sapiens, UniProt P21127)	100%
CAMK2D (Homo sapiens, UniProt Q13557)	99%
PIK3CD (Homo sapiens, UniProt O00329)	75%
NTRK3 (Homo sapiens, UniProt Q16288)	88%
BRAF (Homo sapiens, UniProt P15056)	100%
Insulin receptor (INSR, Homo sapiens, UniProt P06213)	79%
CLK3 (Homo sapiens, UniProt P49761)	100%
eIF-2-alpha kinase GCN2, C-terminal kinase domain (EIF2AK4, Homo sapiens, UniProt Q9P2K8, S808G)	99%
PKN1 (Homo sapiens, UniProt Q16512)	100%
PIK3CB (Homo sapiens, UniProt P42338)	96%
PLK2 (Homo sapiens, UniProt Q9NYY3)	82%
DAPK1 (Homo sapiens, UniProt P53355)	99%
CAMK1G (Homo sapiens, UniProt Q96NX5)	93%
CDK14 (Homo sapiens, UniProt O94921)	100%
STK16 (Homo sapiens, UniProt O75716)	97%
CAMK2G (Homo sapiens, UniProt Q13555)	100%
CAMK4 (Homo sapiens, UniProt Q16566)	88%
TSSK3 (Homo sapiens, UniProt Q96PN8)	100%
ERBB3 (Homo sapiens, UniProt P21860)	76%

Sample 4
Compound: CCOc1ccc(Nc2c3c(nc4ccccc24)CCC3)cc1
Organism: Leishmania infantum chagasi
Technique: qPCR
Species: golden hamster chronic infection
Matrix: liver
Route: oral
Dose: 10 mg/kg/day
Time: 10 days
test	threshold cycle
refers to: TNF mRNA	25.2 cycles and 24.6 cycles and 28 cycles and 24.9 cycles and 24.8 cycles and 24.4 cycles
refers to: IL10 mRNA	35.3 cycles and 35.1 cycles and 36.2 cycles and 34.8 cycles and 37.1 cycles
refers to: IL4 mRNA	24 cycles and 24.4 cycles and 27.5 cycles and 24.3 cycles and 24.7 cycles and 23.9 cycles
